Published values collected from several papers.
Each line is one published result; not all experiments were run side by side. ± gives the spread as reported.
POLB I260M: DNA polymerase beta (POLB, Homo sapiens, UniProt P06746, I260M)
POLB: DNA polymerase beta (POLB, Homo sapiens, UniProt P06746)
SCTR: Secretin receptor (SCTR, Homo sapiens, UniProt P47872)
T1: ssRNA FMR1 5' UTR CGG repeat (Homo sapiens); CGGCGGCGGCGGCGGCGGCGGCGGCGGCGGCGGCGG

Compound | target | test | test system | setting | scale | measurement | result
COc1cncc(C(=O)N2CC3CCC(N)C3C2)n1 (stereo not shown) | HTR2A (Homo sapiens, UniProt P28223) | β-arrestin recruitment, agonist | – | – | – | Emax | 102%
N#Cc1cccc(-c2ccc(=O)n(Cc3cccc(-c4ncc(OCC5CCN(CC(=O)NCCOCCOCCOCCNc6ccc7c(c6)C(=O)N(C6CCC(=O)NC6=O)C7=O)CC5)cn4)c3)n2)c1 (stereo not shown) | MET (Homo sapiens, UniProt P08581) | degrader | EBC-1 | – | – | Dmax | > 95%
Cc1cn([C@H]2C[C@H](O)[C@@H](COP(=O)(O)OP(=O)(O)C(Br)(Br)P(=O)(O)O)O2)c(=O)[nH]c1=O | POLB I260M | substrate, single turnover kinetics | – | – | – | kpol/Kd | 0.0043 ± 0.0011 µM⁻¹ s⁻¹
Cc1cc(=O)oc2c(F)c(OP(=O)(O)O)c(F)cc12 | PTPN11 (Homo sapiens, UniProt Q06124) | enzyme activity, substrate | – | – | – | Km | 108 µM
O=C1CC(c2ccccc2)N1S(=O)(=O)c1ccc(-c2ccccc2)cc1 (stereo not shown) | Rhomboid protease AarA (Providencia stuartii, UniProt P46116) | enzyme activity, inhibitor | – | 100 µM | – | remaining activity | 71 to 86%
Nc1nc2c(ncn2[C@H]2C[C@H](O)[C@@H](COP(=O)(O)OP(=O)(O)[C@@H](F)P(=O)(O)O)O2)c(=O)[nH]1 | POLB | substrate, quench-flow kinetics | – | pH 8.0, 37 °C, incorporation opposite C in gapped DNA | – | kpol | 9.2 ± 2.3 s⁻¹
COC(=O)C1=CNC=C(C(=O)OC)C1c1ccc(F)c(C(F)(F)F)c1 | KCNN4 (Homo sapiens, UniProt O15554, T212F/V272F) | ion current, whole-cell patch clamp | – | fenestration mutant | reference: mutant over wild type | potency fold shift | ~4 fold
Cc1ccc(NC(=O)CNS(=O)(=O)c2nc(-c3ccc(OC(F)(F)F)cc3)cc(C(F)(F)F)n2)cc1 | WRN (Homo sapiens, UniProt Q14191) | ATPase activity, ADP-Glo | – | – | – | maximal inhibition | 100%
[11CH3]Nc1ccc(-c2nc3ccc(O)cc3o2)cn1 | APP (Homo sapiens, UniProt P05067) | binding, PET | Alzheimer's disease patients, grey matter | unit not given | reference: control subjects | effect size of DVR | 5.13
Nc1nc2c(ncn2[C@H]2C[C@H](O)[C@@H](COP(=O)(O)OP(=O)(O)CP(=O)(O)O)O2)c(=O)[nH]1 | POLB | nucleotide incorporation rate, substrate, single-turnover kinetics | single-nucleotide gapped DNA | 37 °C, wild type, misincorporation, with: dGTP opposite template A | – | kpol | 0.003 ± 0.0002 s⁻¹
O=C([O-])CN(CCN(CC(=O)[O-])Cc1cc(CCC(=O)NCCCCCC(=O)NCCCC[C@H](NC(=O)N[C@@H](CCC(=O)O)C(=O)O)C(=O)O)ccc1O)Cc1cc(CCC(=O)O)ccc1[O-].[68Ga+3] | FOLH1 (Homo sapiens, UniProt Q04609) | PET/CT | prostate cancer patients, primary prostate cancer lesions | – | reference: primary lesions over liver | tumour-to-normal tissue ratio | 6.62 ± 6.05
CNc1ccccc1C(=O)O[C@H]1C[C@H](n2cnc3c(N)ncnc32)O[C@@H]1COP(=O)(O)OP(=O)(O)O | Unconventional myosin-Va (Gallus gallus, UniProt Q02440, D297C/G292C/I296C/S293C/V295G) | stopped-flow FRET, linear fit intercept | – | 10 °C, with: MgCl2 2 mM | – | dissociation rate constant | 1.65 ± 0.13 s⁻¹
CN1CCN(CC(=O)N2N=C3/C(=C/c4ccccc4)CCCC3C2c2ccccc2)CC1 (mixture of isomers) | ALOX15B (Homo sapiens, UniProt O15296) | activator | – | 10 µM, with: arachidonic acid 10 µM | reference: activator 0 µM | enzyme activity | 74.4%
C=CC(=O)N1CCCC(n2c(=O)c3ncccc3n(Cc3ccc(Oc4ccccc4)cc3)c2=O)C1 (stereo not shown) | WAS (Homo sapiens, UniProt P42768) | pyrene actin | – | concentration not given | reference: actin alone | actin assembly rate increase | 50 to 60%
COc1ccc(-c2cc(C(F)(F)F)nc(NCc3ccc(Cl)cc3)n2)cc1OC | SCTR | cAMP accumulation, positive allosteric modulator | CHO-K1 overexpressing SCTR | with: EC10-EC20 secretin peptide mix | reference: EC95 peptide mix | Emax | 67 ± 8.6%
CC[C@H](C)[C@H](NC(=O)[C@@H](NC(=O)[C@H](CCCCN)NC(=O)[C@@H](NC(=O)[C@@H]1CCCN1[C@@H]1CN(C(=O)[C@@H](NC(=O)[C@@H](NC(=O)[C@@H](NC(=O)[C@@H](NC(=O)[C@@H](NC(=O)[C@@H](N)CCCCN)C(C)C)C(C)C)C(C)C)[C@@H](C)CC)[C@@H](C)O)CC[C@H]1NS(=O)(=O)c1ccc(C)cc1)[C@@H](C)O)C(C)C)C(=O)N[C@@H](CC(C)C)C(=O)N[C@@H](Cc1c[nH]cn1)C(N)=O | MAPT (Homo sapiens, UniProt P10636) | inhibitor, ThT fluorescence | – | 5-fold over protein, with: heparin | – | aggregation inhibition | inhibited
CCCN(CC(=O)N(CCC)CC(=O)N(CCC)CC(=O)N(CCC)CC(=O)N(CCC)CC(=O)N(CC(N)=O)Cc1cn(CCCNC(=O)CCCOc2cccc(-c3nc4ccc(-c5nc6ccc(N7CCN(C)CC7)cc6[nH]5)cc4[nH]3)c2)nn1)C(=O)CNCc1cn(CCCNC(=O)CCCOc2cccc(-c3nc4ccc(-c5nc6ccc(N7CCN(C)CC7)cc6[nH]5)cc4[nH]3)c2)nn1 | T1, ssRNA FMR1 5' UTR CGG repeat (Homo sapiens) | protein displacement, competitor, TR-FRET | – | – | – | IC50 | 18 µM
COc1ccc(-c2cc(C(F)(F)F)nc(NCc3ccc(F)cc3)n2)cc1OC | SCTR | increase of tracer binding, TR-FRET | HEK293 membranes | with: Fluo-Sec 6 nM | – | Emax | 155 ± 11%
Cc1cn(C2CC(O)C(COP(=O)(O)OP(=O)(O)C(F)P(=O)(O)O)O2)c(=O)[nH]c1=O (mixture of isomers) | POLB I260M | substrate, single turnover kinetics | – | – | – | kpol/Kd | 0.06 ± 0.04 µM⁻¹ s⁻¹
COc1cc(C(=O)NC2CCC(N3CCN(CC4CCC5(CCCC5)C4)CC3)CC2)c(F)cc1Nc1ncc2c(n1)N(C1CCCC1(F)F)CC(F)(F)C(=O)N2C (stereo not shown) | NTRK1 (Homo sapiens, UniProt P04629) | cell-free assay, TR-FRET | – | 10 µM | – | inhibition | 0.75%
Nc1nc2c(ncn2C2CC(O)C(COP(=O)(O)OP(=O)(O)C(F)(Cl)P(=O)(O)O)O2)c(=O)[nH]1 (mixture of isomers) | POLB | nucleotide incorporation rate, substrate, single-turnover kinetics | single-nucleotide gapped DNA | 37 °C, wild type, misincorporation, with: dGTP opposite template A | – | kpol | 0.0018 ± 0.0003 s⁻¹
CCn1c(-c2cc(NC(=O)c3cnccn3)n[nH]2)cc2ccccc21 | CSNK2A2 (Homo sapiens, UniProt P19784) | ATP-competitive test, ADP-Glo | – | with: ATP 10 to 500 µM | reference: high over low ATP | IC50 fold shift | ~35 fold
CCCCCCCCc1ccc(Oc2ccccc2)c(O)c1 | Enoyl-[acyl-carrier-protein] reductase [NADPH] FabI (Staphylococcus aureus, UniProt Q6GI75) | enzyme activity, inhibitor, progress curve kinetics | – | – | – | dissociation rate constant | 0.000564 s⁻¹
NC(=O)CN1C(=O)C(O)(CC(=O)c2cccc(N)c2)c2ccccc21 (stereo not shown) | uncharacterized protein (Leishmania donovani, UniProt A0A3Q8IA09) | competitive ITC | – | concentration not given, with: aspartate 60 µM | – | binding stoichiometry | 1.28 ± 0.0583
COc1ccc(CNc2nc(-c3ccccc3OC)cc(C(F)(F)F)n2)cc1 | SCTR | cAMP accumulation, positive allosteric modulator | CHO-K1 overexpressing SCTR | with: EC10-EC20 secretin peptide mix | reference: EC95 peptide mix | Emax | 39 ± 3.4%
CCCCCCCC/C=C\CCCCCCCC(=O)OC[C@H]1OCCC[C@@H]1OP(=O)(O)S (stereo partly shown) | LPAR2 (Homo sapiens, UniProt Q9HBW0) | agonist, TGFα shedding | – | – | – | Emax | 16%
CNC(=O)c1cc(Oc2ccc(NC(=O)Nc3ccccc3)cc2)ccn1 | Signal peptidase IB (spsB, Staphylococcus aureus, UniProt Q5HHB9) | enzyme activity, FRET peptide cleavage | Staphylococcus aureus membranes | 50 µM | reference: DMSO | remaining activity | 1.18 ± 0.16 fold
Cc1nnc(Nc2ccc(O)cc2)[nH]c1=O | DNA dC->dU-editing enzyme APOBEC-3A (Homo sapiens, UniProt P31941) | binding, 1H CPMG NMR | – | – | – | signal attenuation | 44.9 ± 7.9%
